Measured values pooled from the literature.
Every numbered part comes from another study and shows a few of its results, in no order.

Sample 1
Target: Prothrombin, mature alpha-thrombin (F2, Homo sapiens, UniProt P00734)
Method: aptamer microarray, sandwich
Molecule type: DNA with 2'F-ANA
Matrix: in vitro
Tested at: 200 nM
Setting: whole 15-mer aptamer, many near background
Added: Cy3 exosite-II aptamer, 400 nM
Reading: higher = stronger binding
Strand: GGTTGGTGTGGTTGG
| Modification | mean fluorescence intensity [a.u.] |
| --- | --- |
| 2'F-ANA at 2 3 4 5 6 7 8 10 11 13 14 | 49.7 |
| 2'F-ANA at 3 5 7 8 9 10 12 | 72.4 |
| 2'F-ANA at 1 3 6 8 9 11 | 277 |
| 2'F-ANA at 1 2 5 6 7 8 9 10 11 12 14 15 | 62.1 |
| 2'F-ANA at 1 2 3 5 7 12 13 15 | 86.8 |
| 2'F-ANA at 3 7 8 9 10 13 15 | 479 |
| 2'F-ANA at 2 5 6 8 9 10 11 12 | 51.9 |
| 2'F-ANA at 1 4 6 8 9 13 14 | 57.6 |
| 2'F-ANA at 2 3 7 9 11 12 13 14 | 399 |
| 2'F-ANA at 3 7 10 11 12 14 15 | 386 |
| 2'F-ANA at 1 5 6 7 8 9 10 15 | 46.1 |

Sample 2
Target: Sal-like protein 4, full length isoform A (SALL4, Homo sapiens, UniProt Q9UJQ4, residues 1-1053)
Chain of UniProt Q9UJQ4 (whole entry, looked up): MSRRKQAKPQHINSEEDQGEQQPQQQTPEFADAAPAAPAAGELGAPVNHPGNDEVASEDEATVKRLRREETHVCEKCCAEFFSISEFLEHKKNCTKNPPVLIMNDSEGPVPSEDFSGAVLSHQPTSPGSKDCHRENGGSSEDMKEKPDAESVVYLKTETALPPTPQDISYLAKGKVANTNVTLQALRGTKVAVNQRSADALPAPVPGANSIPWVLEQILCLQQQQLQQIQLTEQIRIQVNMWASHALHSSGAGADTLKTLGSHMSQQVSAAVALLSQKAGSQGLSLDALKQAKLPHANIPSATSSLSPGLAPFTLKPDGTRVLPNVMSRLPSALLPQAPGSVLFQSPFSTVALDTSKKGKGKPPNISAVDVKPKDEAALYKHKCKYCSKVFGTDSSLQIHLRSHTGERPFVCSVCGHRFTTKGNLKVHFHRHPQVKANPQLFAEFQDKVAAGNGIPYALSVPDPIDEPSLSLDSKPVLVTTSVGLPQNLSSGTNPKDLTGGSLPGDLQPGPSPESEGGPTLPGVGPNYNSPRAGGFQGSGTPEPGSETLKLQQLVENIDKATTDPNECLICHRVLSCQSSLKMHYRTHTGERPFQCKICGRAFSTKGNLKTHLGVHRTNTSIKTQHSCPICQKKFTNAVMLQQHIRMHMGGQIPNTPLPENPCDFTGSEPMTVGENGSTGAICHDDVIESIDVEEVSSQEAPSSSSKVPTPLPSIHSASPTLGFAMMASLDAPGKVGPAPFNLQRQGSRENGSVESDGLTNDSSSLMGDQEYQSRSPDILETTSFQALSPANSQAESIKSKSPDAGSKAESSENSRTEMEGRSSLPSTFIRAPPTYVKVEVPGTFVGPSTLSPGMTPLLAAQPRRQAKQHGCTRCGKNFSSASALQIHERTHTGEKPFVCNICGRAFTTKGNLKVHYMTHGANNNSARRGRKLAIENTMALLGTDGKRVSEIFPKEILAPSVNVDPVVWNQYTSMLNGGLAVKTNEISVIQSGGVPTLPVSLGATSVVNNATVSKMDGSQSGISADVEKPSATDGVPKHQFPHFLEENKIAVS
Method: universal PBM
Molecule type: double-stranded DNA, one strand shown
Matrix: in vitro
Tested at: 600 nM
Setting: 8-mer, flanks averaged, mean of replicates
Reading: higher = stronger binding
| Strand | E-score |
| --- | --- |
| CATGGCCG | -0.271 |
| ATGCTCTA | 0.0239 |
| ACAAGCTA | -0.00405 |
| CTAGCAAG | -0.185 |
| ATAATGAA | 0.393 |
| TGAACCCA | -0.0686 |

Sample 3
Target: Histone acetyltransferase KAT6A, winged helix 1, GST fusion (KAT6A, Homo sapiens, UniProt Q92794, residues 1-85)
Method: protein binding microarray
Molecule type: double-stranded DNA, one strand shown
Matrix: in vitro
Tested at: not given
Setting: 8-mer, flanks averaged, mean of 2 arrays, mostly near background
Reference: not given
Reading: higher = stronger binding
Construct (chain): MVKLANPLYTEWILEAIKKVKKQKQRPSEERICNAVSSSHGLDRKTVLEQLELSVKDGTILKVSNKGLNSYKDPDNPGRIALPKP
| Strand | E-score |
| --- | --- |
| GGGGGACA | -0.0329 |
| GCGCCGCC | 0.459 |
| ATGGAGCC | -0.102 |
| CGTACGAC | -0.0985 |
| GGATATCA | -0.0092 |
| CTTACTCA | -0.0789 |
| AAGGTAAG | -0.00209 |

Other studies, line by line
| Molecule | target | test | system | setting | how to read | endpoint | value |
| --- | --- | --- | --- | --- | --- | --- | --- |
| PhoQ, residues 284 288 289 292 302 303 TTSMTC | PhoP, residues 12 14 15 18 19 NYFRM (Escherichia coli, UniProt P23836) | Sort-seq, measured: YFP reporter | E. coli | PhoQ-PhoP variant library, added: 10 µM Mg2+ | reference: high Mg2+ state, higher = stronger signaling | fold induction | 7.61 |

Excerpt of the above (sample 2):
| Strand | E-score |
| --- | --- |
| CTAGCAAG | -0.185 |
| ATAATGAA | 0.393 |
| ATGCTCTA | 0.0239 |
